# Results pooled from the literature.
# Each numbered part is a random draw from the data of one study; scales do not carry over between parts.

# Set 1 — organism: Plasmodium berghei; mode: inhibitor; cells: Huh-7; strain: GFP-expressing, liver stage; tested at: 10 µM; time: 24 h; reference: untreated control
Structure (SMILES),infection rate
CCCCC(=O)N(Cc1ccc(-c2ccccc2-c2nnn[nH]2)cc1)[C@H](C(=O)O)C(C)C,89.2%
CC(=O)S[C@@H]1CC2=CC(=O)CC[C@]2(C)[C@H]2CC[C@@]3(C)[C@@H](CC[C@@]34CCC(=O)O4)[C@H]12,84.4%
CNC(=C[N+](=O)[O-])NCCSCc1ccc(CN(C)C)o1,112%
NCCS(=O)(=O)O,44.6%
Cc1noc(NS(=O)(=O)c2ccc(N)cc2)c1C,92.4%
CC(c1cc2ccccc2s1)N(O)C(N)=O (stereo not shown),88.5%
C[C@]12C=CC(=O)C=C1CC[C@@H]1[C@@H]2[C@@H](O)C[C@@]2(C)[C@H]1CC[C@]2(O)C(=O)CO,82.5%

# Set 2 — observed: enzyme activity; mode: inhibitor; tested at: 0.5 µM; reference: control
# Target: Cyclin-dependent kinase 2, with cyclin E (CDK2, Homo sapiens, UniProt P24941)
SMILES,remaining activity [%]
Cn1c2ccccc2c2c3c(c4c5ccccc5n(CCC#N)c4c21)CNC3=O,27.8
Nc1ccc2ncnc(NCCc3ccc(Oc4ccccc4)cc3)c2c1,95
Nc1ncnc2n[nH]c(Nc3ccc(F)cc3)c12,90.3
O=C(CCCc1ccc(-c2ccccc2F)cc1)Nc1ccc(O)cc1,91.9
Cn1sc(=O)n(Cc2ccccc2)c1=O,95.1
O=c1c2ccccc2[nH]c(=S)n1CCN1CCC(=C(c2ccc(F)cc2)c2ccc(F)cc2)CC1,97.3
CNC(=O)c1cc(Oc2ccc(NC(=O)Nc3ccc(Cl)c(C(F)(F)F)c3)cc2)ccn1,98.2
COc1ccc(CNC(=O)Nc2ncc([N+](=O)[O-])s2)cc1,97.6
Cc1cccc(-c2[nH]c(C(C)(C)C)nc2-c2ccc3c(c2)OCO3)n1,95.6
COc1ccc(OC)c2c(=S)c3ccccc3[nH]c12,77.9
Oc1ccc(-c2nc(-c3ccncc3)c(-c3ccc(F)cc3)[nH]2)cc1,90.6
O=C(Nc1cccc(Nc2cc(Nc3cccc(C(F)(F)F)c3)ncn2)c1)C1CC1,96.7
COc1cc2ncnc(Nc3ccc(F)c(Cl)c3)c2cc1OCCCN1CCOCC1,101
CO[C@H]1C[C@@H]2CC[C@@H](C)[C@@](O)(O2)C(=O)C(=O)N2CCCC[C@H]2C(=O)O[C@H]([C@H](C)C[C@@H]2CC[C@@H](O)[C@H](OC)C2)CC(=O)[C@H](C)/C=C(\C)[C@@H](O)[C@@H](OC)C(=O)[C@H](C)C[C@H](C)/C=C/C=C/C=C/1C,91.3
N#CC(C#N)=C(N)/C(C#N)=C/c1ccc(O)cc1,97

# Set 3 — observed: binding; method: radioligand binding; tested at: 10 µM
# Target: Histamine H2 receptor (HRH2, Homo sapiens, UniProt P25021)
# Chain of UniProt P25021 (whole entry, looked up): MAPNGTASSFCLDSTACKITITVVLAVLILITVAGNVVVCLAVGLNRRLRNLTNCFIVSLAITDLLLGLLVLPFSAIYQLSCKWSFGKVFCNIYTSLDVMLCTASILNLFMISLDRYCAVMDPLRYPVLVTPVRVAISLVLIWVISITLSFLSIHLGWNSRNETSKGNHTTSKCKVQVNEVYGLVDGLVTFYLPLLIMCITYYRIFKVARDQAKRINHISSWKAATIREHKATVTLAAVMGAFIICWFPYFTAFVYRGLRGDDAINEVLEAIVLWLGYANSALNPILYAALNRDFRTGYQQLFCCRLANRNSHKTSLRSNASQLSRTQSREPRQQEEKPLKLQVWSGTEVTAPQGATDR
Structure (SMILES),inhibition
COCCc1ccc(-c2c(C)nc3c(N4CCOCC4)ccnn23)cn1,12.9%
CNC(=O)c1ccc(Nc2ncc(C(F)(F)F)c(NCc3nccnc3N(C)S(C)(=O)=O)n2)cc1,30.2%
CC1=C(C#N)C(c2ccc3c(c2)c(NC(=O)c2ccccc2C)nn3C)C(C#N)=C(C)N1,8.7%
CC(=O)Nc1c(F)cc(C(=O)N[C@H]2CC[C@H](O)CC2)cc1O[C@@H](C)c1ccccc1,-7.57%

# Set 4 — observed: enzyme activity; mode: inhibitor; method: ADP detection
# Target: Receptor-interacting serine/threonine-protein kinase 3 (RIPK3, Homo sapiens, UniProt Q9Y572)
# Chain of UniProt Q9Y572 (whole entry, looked up): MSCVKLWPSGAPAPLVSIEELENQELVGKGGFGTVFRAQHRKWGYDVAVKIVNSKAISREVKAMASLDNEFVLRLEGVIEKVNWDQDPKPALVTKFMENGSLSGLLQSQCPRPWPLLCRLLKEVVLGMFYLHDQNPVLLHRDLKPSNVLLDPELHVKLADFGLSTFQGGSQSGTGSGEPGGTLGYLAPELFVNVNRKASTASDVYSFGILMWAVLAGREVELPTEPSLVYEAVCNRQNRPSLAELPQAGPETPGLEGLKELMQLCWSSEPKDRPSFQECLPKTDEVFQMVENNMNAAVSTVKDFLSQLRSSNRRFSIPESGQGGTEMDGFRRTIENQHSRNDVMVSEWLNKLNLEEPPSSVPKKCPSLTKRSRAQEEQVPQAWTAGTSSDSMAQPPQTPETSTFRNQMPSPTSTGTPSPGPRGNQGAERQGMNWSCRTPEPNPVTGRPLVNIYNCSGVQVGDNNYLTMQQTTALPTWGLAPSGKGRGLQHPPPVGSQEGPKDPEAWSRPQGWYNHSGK
SMILES,IC50
CC(C)S(=O)(=O)c1ccc2nccc(Nc3ccc4sc(C5CCCC5)nc4c3)c2c1,1.58 nM
CC(C)S(=O)(=O)c1cc2c(Nc3ccc4sc(C5CCCC5)nc4c3)ccnc2cc1OCCO,16.4 nM
Cc1ccc(O)cc1Nc1ccnc2cc(-c3ccccn3)ccc12,1.58 nM
CC[C@@H](C)c1nc2cc(Nc3ccnc4ccc(S(=O)(=O)C(C)C)cc34)ccc2s1,3.48 nM
CC(C)(C)c1nc(-c2cccc(NS(=O)(=O)c3c(F)cccc3F)c2F)c(-c2ccnc(N)n2)s1,28.2 nM

# Repeated from above (set 2):
SMILES,remaining activity [%]
Nc1ccc2ncnc(NCCc3ccc(Oc4ccccc4)cc3)c2c1,95
O=C(Nc1cccc(Nc2cc(Nc3cccc(C(F)(F)F)c3)ncn2)c1)C1CC1,96.7
